Assay results gathered from unrelated publications.
Each line is one published result; not all experiments were run side by side. ± gives the spread as reported.

SMILES = CCCC[C@H](NC(=O)COCCOCCNC(=O)CN1CCN(CC(=O)O)CCN(CC(=O)O)CC1)C(=O)N[C@H]1CC(=O)NCCCC[C@@H](C(N)=O)NC(=O)[C@H](Cc2c[nH]c3ccccc23)NC(=O)[C@H](CCCNC(=N)N)NC(=O)[C@@H](Cc2ccccc2)NC(=O)[C@H](Cc2c[nH]cn2)NC1=O [copper-64 labelled]; host = C57 mice; medium = blood; route = intravenous; dose = 0.37 MBq; time = 2 h; tissue uptake = 0.18 ± 0.06 %ID/g
SMILES = CC(C)C[C@H](NC(=O)[C@H](Cc1ccc(O)cc1)NC(=O)[C@@H](CCCNC(=N)N)NC(=O)[C@@H](CO)NC(=O)[C@H](Cc1ccccc1)NC(=O)[C@H](CC1CCCCC1)NC(=O)[C@H](CC(=O)O)NC(=O)CN1CCCN2CCN(CCCN(CC(=O)O)CC2)CC1)C(=O)N[C@@H](Cc1c[nH]c2ccccc12)C(=O)N[C@@H](CO)C(=O)O [copper-64 labelled]; host = female NMRI nude mice; medium = intestine; time = 1 h p.i.; tissue uptake = 4.3 ± 1.1 %ID/g
SMILES = N=C(N)NCCC[C@@H]1NC(=O)[C@H](CCCCNC(=O)CC[C@H](NC(=O)CC[C@H](NC(=O)CN2CCN(CC(=O)O)CCN(CC(=O)O)CCN(CC(=O)O)CC2)C(=O)N[C@@H](CCC(=O)NCCCC[C@@H]2NC(=O)[C@@H](Cc3ccccc3)NC(=O)[C@H](CC(=O)O)NC(=O)CNC(=O)[C@H](CCCNC(=N)N)NC2=O)C(=O)NCCCC[C@@H]2NC(=O)[C@@H](Cc3ccccc3)NC(=O)[C@H](CC(=O)O)NC(=O)CNC(=O)[C@H](CCCNC(=N)N)NC2=O)C(=O)NCCCC[C@@H]2NC(=O)[C@@H](Cc3ccccc3)NC(=O)[C@H](CC(=O)O)NC(=O)CNC(=O)[C@H](CCCNC(=N)N)NC2=O)NC(=O)[C@@H](Cc2ccccc2)NC(=O)[C@H](CC(=O)O)NC(=O)CNC1=O [indium-111 labelled]; host = female athymic nu/nu mice; medium = intestine; route = intravenous; time = 4 h; tissue uptake = 9.19 ± 1.58 %ID/g
SMILES = CCCC[C@H](NC(=O)CNC(=O)CNC(=O)CN1CCN(CC(=O)O)CCN(CC(=O)O)CCN(CC(=O)O)CC1)C(=O)N[C@H]1CC(=O)NCCCC[C@@H](C(N)=O)NC(=O)[C@H](Cc2c[nH]c3ccccc23)NC(=O)[C@H](CCCNC(=N)N)NC(=O)[C@@H](Cc2ccccc2)NC(=O)[C@H](Cc2c[nH]cn2)NC1=O [lutetium-177 labelled]; host = C57 mouse, female; medium = bone; route = intravenous; dose = 0.037 MBq; time = 24 h; tissue uptake = 0.18 ± 0.24 %ID/g
SMILES = CCCC[C@H](NC(=O)CNC(=O)CNC(=O)CN1CCN(CC(=O)O)CCN(CC(=O)O)CC1)C(=O)N[C@H]1CC(=O)NCCCC[C@@H](C(N)=O)NC(=O)[C@H](Cc2c[nH]c3ccccc23)NC(=O)[C@H](CCCNC(=N)N)NC(=O)[C@@H](Cc2ccccc2)NC(=O)[C@H](Cc2c[nH]cn2)NC1=O [technetium-99m labelled]; host = C57 mouse; medium = stomach; route = iv; dose = 0.037 MBq; time = 4 h; tissue uptake = 0.25 ± 0.06 %ID/g
SMILES = CCCC[C@H](NC(=O)CCCCCCCNC(=O)CN1CCN(CC(=O)O)CCN(CC(=O)O)CC1)C(=O)N[C@H]1CC(=O)NCCCC[C@@H](C(N)=O)NC(=O)[C@H](Cc2c[nH]c3ccccc23)NC(=O)[C@H](CCCNC(=N)N)NC(=O)[C@@H](Cc2ccccc2)NC(=O)[C@H](Cc2c[nH]cn2)NC1=O [copper-64 labelled]; host = C57 mice; medium = stomach; route = intravenous; dose = 0.37 MBq; time = 0.5 h; tissue uptake = 1.67 ± 0.68 %ID/g
SMILES = CC(C)C[C@H](NC(=O)[C@@H](CCCCNC(=O)CCCCCNC(=O)CN1CCN(CC(=O)O)CCN(CC(=O)O)CCN(CC(=O)O)CC1)NC(=O)[C@H](Cc1ccc(O)cc1)NC(=O)[C@H](CO)NC(=O)[C@H](Cc1c[nH]c2ccccc12)NC(=O)[C@H](Cc1cnc[nH]1)NC(=O)[C@@H]1CCC(=O)N1)C(=O)N[C@@H](CCCNC(=N)N)C(=O)N1CCC[C@H]1C(=O)NCC(N)=O [indium-111 labelled]; host = female athymic nude mouse; medium = liver; route = intravenous; dose = 0.037 MBq; time = 2 h; tissue uptake = 0.77 ± 0.06 %ID/g
SMILES = N=C(N)NCCC[C@@H]1NC(=O)[C@H](CCCCNC(=O)CNC(=O)CNC(=O)CNC(=O)CC[C@H](NC(=O)CNC(=O)CNC(=O)CNC(=O)CN2CCN(CC(=O)O)CCN(CC(=O)O)CCN(CC(=O)O)CC2)C(=O)NCC(=O)NCC(=O)NCC(=O)NCCCC[C@@H]2NC(=O)[C@@H](Cc3ccccc3)NC(=O)[C@H](CC(=O)O)NC(=O)CNC(=O)[C@H](CCCNC(=N)N)NC2=O)NC(=O)[C@@H](Cc2ccccc2)NC(=O)[C@H](CC(=O)O)NC(=O)CNC1=O [indium-111 labelled]; host = female athymic nu/nu mice; medium = heart; route = intravenous; time = 0.5 h; tissue uptake = 1.03 ± 0.12 %ID/g

Excerpt of the above:
SMILES = CC(C)C[C@H](NC(=O)[C@@H](CCCCNC(=O)CCCCCNC(=O)CN1CCN(CC(=O)O)CCN(CC(=O)O)CCN(CC(=O)O)CC1)NC(=O)[C@H](Cc1ccc(O)cc1)NC(=O)[C@H](CO)NC(=O)[C@H](Cc1c[nH]c2ccccc12)NC(=O)[C@H](Cc1cnc[nH]1)NC(=O)[C@@H]1CCC(=O)N1)C(=O)N[C@@H](CCCNC(=N)N)C(=O)N1CCC[C@H]1C(=O)NCC(N)=O [indium-111 labelled]; host = female athymic nude mouse; medium = liver; route = intravenous; dose = 0.037 MBq; time = 2 h; tissue uptake = 0.77 ± 0.06 %ID/g
